Results collected from several papers.
Every numbered part comes from another study and shows a few of its results, in no order.

Set 1 — observed: enzyme activity; action: inhibitor; tested at: 20 µM
Target: Replicase polyprotein 1ab, polymerase (rep, Severe acute respiratory syndrome coronavirus 2, UniProt P0DTD1)
For `O=C(NCC(=O)N1CCCC1)Nc1ccc2cnccc2c1`, the inhibition was -0.64%.
With `O=C(O)P(=O)(O)O` the inhibition was 18.1%.
With `CCOc1cncc(/C=C/CCNC)c1` the inhibition was -6.85%.
With `Cc1cccc(NC(=O)c2ccc(C(F)(F)F)cc2C(=O)O)n1` the inhibition was -0.64%.
`CCOc1cc(CC(=O)N[C@@H](CC(C)C)c2ccccc2N2CCCCC2)ccc1C(=O)O` gave an inhibition of -6.73%.
The inhibition of `COc1ccccc1N1CCN(CCCNc2cc(=O)n(C)c(=O)n2C)CC1` is reported as 1.71%.
`Cc1ccc2c(c1)[C@]13CCCC[C@@H]1[C@H](C2)N(C)CC3` has an inhibition of 9.85%.
The inhibition of `COc1cccc(-c2cc(NCc3ccc4c(c3)OCO4)nc(N)n2)c1` is reported as -3.15%.
`COCCOC(=O)C1=C(C)NC(C)=C(C(=O)OC/C=C/c2ccccc2)C1c1cccc([N+](=O)[O-])c1` (centres unmarked) has an inhibition of -1.4%.
For `Oc1ccc2c(c1)CC[C@H](c1ccccc1)[C@@H]2c1ccc(OCCN2CCCC2)cc1`, the inhibition was 0.34%.
`NS(=O)(=O)C#Cc1ccccc1` has an inhibition of -1.59%.
`CN(C(=O)/C=C/c1ccoc1)[C@@H]1CC[C@@]2(O)[C@H]3Cc4ccc(O)c5c4[C@@]2(CCN3CC2CC2)[C@H]1O5` gave an inhibition of -5.29%.
`CCOC(=O)CC(=O)N1CCSC1COc1ccccc1OC` (centres unmarked) has an inhibition of 0.38%.
With `O=S(=O)(O)CCCS(=O)(=O)O` the inhibition was 1.5%.
For `C[C@H](Oc1ccc(S(C)(=O)=O)cc1C(=O)N1CCN(c2ncc(C(F)(F)F)cc2F)CC1)C(F)(F)F`, the inhibition was 3.51%.
`O=C(CCCN1CCC(n2c(=O)[nH]c3ccccc32)CC1)c1ccc(F)cc1` has an inhibition of -1.58%.
`Cc1c(NC(=O)c2cc3c(s2)CCCC3)cccc1-c1cn(C)c(=O)c(Nc2ccc([C@@H]3C(=O)N(C)CCN3C)cc2)n1` (racemic) has an inhibition of -2.14%.
With `O=c1[nH]c(=O)n(Cl)c(=O)n1Cl` the inhibition was 5.58%.
`NC[C@H]1CC[C@H](C(=O)O)CC1` gave an inhibition of 28.3%.
With `CC(C)(NS(=O)(=O)c1ccc(Oc2ccc(F)cc2)cc1)C(=O)NO` the inhibition was 1.93%.
`C[C@@H](NCc1cc(Br)cc2[nH]c(=O)c(=O)[nH]c12)P(=O)(O)O` has an inhibition of 1.68%.
`CC(=O)c1cc([N+](=O)[O-])c(Sc2ccc(F)cc2F)s1` gave an inhibition of -0.8%.
For `c1ccc([C@H]2CN3CCSC3=N2)cc1`, the inhibition was -1.55%.
`CCCCNc1ncc2c(-c3ccc(CN4CCN(C)CC4)cc3)cn([C@H]3CC[C@H](O)CC3)c2n1` has an inhibition of 5.14%.
The inhibition of `O=C1Cc2c([nH]c3ccc(Br)cc23)-c2ncccc2N1` is reported as -1.53%.

Set 2 — method: RNA Bind-n-Seq; form: RNA; matrix: in vitro; tested at: 365 nM; relative to: no-protein control; direction: higher = stronger binding
Target: RNA binding protein fox-1 homolog 2, RRM domain, GST-SBP tag (RBFOX2, Homo sapiens, UniProt O43251-10, residues 100-194)
Notes: natural RNA segment, single round, ends assumed
Construct (chain): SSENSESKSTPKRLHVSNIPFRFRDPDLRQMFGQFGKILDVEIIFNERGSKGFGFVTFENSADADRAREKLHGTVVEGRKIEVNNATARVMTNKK
Under “RBNS enrichment (R)”, `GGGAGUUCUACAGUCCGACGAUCGUUCAUGUGUUGAAUUUGUAAAUAUAAUUUGCAACCAAAUGAAGUAUUUAUUUUUAAAAAGAAAAGGUGGAGGAACCAAUAUCAACUUGUACAUAAUGAAAAUAUGCGUGUGGAAUUCUCGGGUGCCAA` is recorded as 0.767.
Under “RBNS enrichment (R)”, `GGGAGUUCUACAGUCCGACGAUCCCUCCUGCUGCCUGCGUGGGAGAAAGUAGGGGAGGAGUCCAAACCAGGCCACCAGAGAUGGUUGAGAUAAAUGACAAAUCUGGUGGAAGUCAGACAUGGCUCUAAAGAGCUGGAAUUCUCGGGUGCCAA` is recorded as 0.483.
`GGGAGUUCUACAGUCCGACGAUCUGGGACCUACUUUGUUUUUUGUUAUUUAUGACCUUGUUUAAAGAAAAUAAAUAUCUCCCAACCUUUAUUGGUCUGGUCUUUCUCUGUGGAAUUGUCCUUAUUUCUGCUGAUGGAAUUCUCGGGUGCCAA` — result for “RBNS enrichment (R)”: 0.431.
For `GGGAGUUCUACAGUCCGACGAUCCUGCGGUGCUGAGCCAGCAGAAAUGAUUUCUUCAGCAGAUGUACCAGCUGUCAUCACUGACGUAUGCACAAAACCAGACCGUUGAUCCCUGGUAUUCCAAGUUGAGUAUGUGGAAUUCUCGGGUGCCAA`, “RBNS enrichment (R)” read 0.581.
For `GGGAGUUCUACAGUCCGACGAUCUCAGAUAAUCCUUGUGUCUUGGGUCAGUUUGGCCCUGGCCCUAGAGUGAGGCAAGCCCUUCCUAUGAAGAUGAGCAAAAAUAUUAUUCCACUUCACUCUGAGUGCUUUCAUGGAAUUCUCGGGUGCCAA`, “RBNS enrichment (R)” read 0.279.
`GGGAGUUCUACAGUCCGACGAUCUAUCACAUAACAGGACCAUGUUUUUAACCUACCAUCAAGAGCCUGUAUUUUGAGUUAUUCCAACAGAGAUGAUGGAUUCCUGUAGAACUAGAGGUGGGUGACCUAUGGUUUGGAAUUCUCGGGUGCCAA`: “RBNS enrichment (R)” 0.544.
For `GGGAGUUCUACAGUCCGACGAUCGCUGAAAUUUGAAGACCAGAUAAUGAAACUGAAAAGCAAACAAUUUUACUGAAUCUGUCUACCCUUCAUUCAUGAGAACUCCAGAAUGAGUGUUGACCACUGAAGCAUCUUGGAAUUCUCGGGUGCCAA`, “RBNS enrichment (R)” read 2.09.
Under “RBNS enrichment (R)”, `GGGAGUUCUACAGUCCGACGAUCGAGGCCACCUGACAUGCAUUAGCCUGGACUUCUCUGAGAGCUGGGCACAGCUUGCAGGACCCUGGCUUUCUAAGCUGAACCACAGAUUGUUCUUCCACCCACCCUCUCUUUGGAAUUCUCGGGUGCCAA` is recorded as 0.573.

Set 3 — method: universal PBM; form: double-stranded DNA, one strand shown; matrix: in vitro; tested at: not given; direction: higher = stronger binding
Target: Sal-like protein 4, full length isoform B (SALL4, Homo sapiens, UniProt Q9UJQ4-2, residues 1-616)
Notes: 8-mer, flanks averaged, mean of replicates
Construct (chain): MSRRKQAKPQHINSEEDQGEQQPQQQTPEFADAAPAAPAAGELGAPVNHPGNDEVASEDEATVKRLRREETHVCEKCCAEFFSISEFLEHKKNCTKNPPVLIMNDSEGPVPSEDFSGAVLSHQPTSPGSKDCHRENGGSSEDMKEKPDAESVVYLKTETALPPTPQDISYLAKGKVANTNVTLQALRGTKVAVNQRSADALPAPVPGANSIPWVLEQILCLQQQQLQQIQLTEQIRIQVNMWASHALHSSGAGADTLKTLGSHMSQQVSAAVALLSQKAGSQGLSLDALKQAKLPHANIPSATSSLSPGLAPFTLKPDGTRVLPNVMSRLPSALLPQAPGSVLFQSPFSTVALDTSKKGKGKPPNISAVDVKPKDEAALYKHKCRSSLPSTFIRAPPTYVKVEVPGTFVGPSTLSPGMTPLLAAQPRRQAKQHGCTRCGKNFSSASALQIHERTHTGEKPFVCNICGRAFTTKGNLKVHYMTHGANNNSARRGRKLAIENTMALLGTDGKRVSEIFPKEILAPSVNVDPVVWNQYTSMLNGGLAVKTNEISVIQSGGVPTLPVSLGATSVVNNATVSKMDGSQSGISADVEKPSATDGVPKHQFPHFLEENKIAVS
`GGGTGACA` gave an E-score of -0.12.
`GAGCGCGC` has an E-score of -0.274.
`CCTTAGCA` gave an E-score of -0.111.
`ACGTCACA` gave an E-score of 0.00452.
`AAAGTCGA` has an E-score of -0.0709.
For `GATTTCAC`, the E-score was 0.161.
For `CTCGAGAG`, the E-score was -0.162.
For `CATATGGA`, the E-score was 0.109.

Set 4 — method: protein binding microarray; form: double-stranded DNA, one strand shown; matrix: in vitro; tested at: not given; relative to: not given; direction: higher = stronger binding
Target: Histone acetyltransferase KAT6A, both winged helices, GST fusion (KAT6A, Homo sapiens, UniProt Q92794, residues 1-181)
Notes: 8-mer, flanks averaged, mean of 2 arrays, mostly near background
Construct (chain): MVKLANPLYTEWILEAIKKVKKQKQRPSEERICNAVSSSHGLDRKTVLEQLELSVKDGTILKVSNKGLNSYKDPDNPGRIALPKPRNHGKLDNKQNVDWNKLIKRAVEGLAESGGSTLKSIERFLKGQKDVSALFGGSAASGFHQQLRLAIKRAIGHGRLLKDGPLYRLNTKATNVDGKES
`CAGCAAGC` has an E-score of -0.126.
The E-score of `ACAGCTGA` is reported as -0.0442.
The E-score of `ATGTGCAC` is reported as -0.0654.
`CATCCAAG` has an E-score of -0.2.
The E-score of `ATCCAACG` is reported as -0.023.
`AGTACTGC` gave an E-score of -0.0513.
`ATCGATTA` has an E-score of -0.05.
With `CCCATTCG` the E-score was -0.0285.

Other studies, line by line
`COc1ccc2cc(CCC(C)=O)ccc2c1` has a GFP-positive cells of 77.4% (HEK-293T; pseudovirus infection, FDA-approved drug library screen; VSV pseudotyped with SARS-CoV-2 spike; 10 µM, 16 h; relative to: vehicle-treated).

Some of these lines once more (set 1):
`CN(C(=O)/C=C/c1ccoc1)[C@@H]1CC[C@@]2(O)[C@H]3Cc4ccc(O)c5c4[C@@]2(CCN3CC2CC2)[C@H]1O5` gave an inhibition of -5.29%.
`CCOC(=O)CC(=O)N1CCSC1COc1ccccc1OC` (centres unmarked) has an inhibition of 0.38%.
With `O=S(=O)(O)CCCS(=O)(=O)O` the inhibition was 1.5%.
For `C[C@H](Oc1ccc(S(C)(=O)=O)cc1C(=O)N1CCN(c2ncc(C(F)(F)F)cc2F)CC1)C(F)(F)F`, the inhibition was 3.51%.
